Experimental data from different studies.
Each numbered part is a random draw from the data of one study; scales do not carry over between parts. Changes are numbered by the printed parent chain.

Series 1 — method: DHFR PCA, deep sequencing; medium: yeast; together with: (+)-ABA 0.39 µM; reference: wild-type fitted maximum; direction: higher = stronger binding
Target: ABI1, truncated, D143A, DHFR fusion (Arabidopsis thaliana)
Setting: methotrexate growth selection, single substitutions
Starting sequence: PYL1, truncated, DHFR fusion (Arabidopsis thaliana); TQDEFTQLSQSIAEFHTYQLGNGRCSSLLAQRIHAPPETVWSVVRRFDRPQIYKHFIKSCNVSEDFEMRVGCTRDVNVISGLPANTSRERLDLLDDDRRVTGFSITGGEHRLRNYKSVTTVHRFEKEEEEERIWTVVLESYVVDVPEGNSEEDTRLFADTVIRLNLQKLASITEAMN; partner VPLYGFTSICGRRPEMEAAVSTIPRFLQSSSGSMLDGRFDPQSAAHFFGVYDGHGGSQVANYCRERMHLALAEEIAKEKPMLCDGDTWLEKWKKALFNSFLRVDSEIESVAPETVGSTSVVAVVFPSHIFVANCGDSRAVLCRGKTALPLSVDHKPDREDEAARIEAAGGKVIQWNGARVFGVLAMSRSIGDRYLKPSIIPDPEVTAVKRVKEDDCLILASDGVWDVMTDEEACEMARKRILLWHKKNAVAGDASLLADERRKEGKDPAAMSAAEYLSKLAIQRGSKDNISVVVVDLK
Change | relative binding score [%]
D96H | -16.7
T106H | 8.28
R88Y | 33.3
R163M | 30.1
H110R | 14.5
A158G | -5.74
V136F | 4.7
N22M | 33.9
D153A | -4.5
Q51D | 43.5
S27R | 2.6
E152I | -1.78
T173E | -3.47
Y141F | -6.15
Q167V | 14.2
R98F | -0.392
L29V | 46.3
D97M | 22.3
L164F | 21.8
I57Y | -9.2

Series 2 — target: UBE2J2 UBC core domain (UniProt Q8N2K1); method: yeast two-hybrid; medium: yeast; setting: mostly zero background; reference: not given; direction: higher = stronger interaction
Chain of UniProt Q8N2K1 (whole entry, looked up): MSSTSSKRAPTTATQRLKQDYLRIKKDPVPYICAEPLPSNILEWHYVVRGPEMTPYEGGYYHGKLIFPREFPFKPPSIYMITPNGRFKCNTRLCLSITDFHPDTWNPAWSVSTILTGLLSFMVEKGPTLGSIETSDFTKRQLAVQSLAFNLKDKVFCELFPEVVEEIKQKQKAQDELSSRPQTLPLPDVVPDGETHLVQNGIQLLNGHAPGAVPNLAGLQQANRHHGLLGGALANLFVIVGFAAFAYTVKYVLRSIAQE
B1: RFWD3 RING domain (UniProt Q6PCD5); chain ASMDEEEGDTCTICLEQWTNAGDHRLSALRCGHLFGYRCISTWLKGQVRKCPQCNKKARHSDIVV
B2: RNF133 RING domain (UniProt Q8WVZ7); chain DEEINPNGDSCVICFERYKPNDIVRILTCKHFFHKNCIDPWILPHGTCPICKCDILKVLGIQ
B3: DZIP3 RING domain (UniProt Q86Y13); chain PDEEEEEEEPCVICHENLSPENLSVLPCAHKFHAQCIRPWLMQQGTCPTCRLHVLLPEEFP
B4: SH3RF1 RING domain (UniProt Q7Z6J0); chain DESALLDLLECPVCLERLDASAKVLPCQHTFCKRCLLGIVGSRNELRCPECRTLVGSGVEEL
B5: ZMIZ2 RING domain (UniProt Q8NF64); chain GTIPGTPGPNGEDGVEQTAIKVSLKCPITFRRIQLPARGHDCRHIQCFDLESYLQLNCERGTWRCPVCNKTALLEGLEVDQYMLGILIYIQNSDYEEITIDPTCSWK
B6: SYTL4 RING domain (UniProt Q96C24); chain RGSQHYSDRTCARCQESLGRLSPKTNTCRGCNHLVCRDCRIQESNGTWRCKVCAKEIELKKAT
B7: MAP3K1 RING domain (UniProt Q13233); chain NSIKDEEEQMCPICLLGMLDEESLTVCEDGCRNKLHHHCMSIWAEECRRNREPLICPLCRSKWRSHDFYS
Sequence | lacZ reporter activity
B1 (RFWD3 RING domain) | 0
B2 (RNF133 RING domain) | 0
AVPSGLEENLCKICMDSPIDCVLLECGHMVTCTKCGKRMNECPICRQYVIRAVHVF (RFFL RING domain (UniProt Q8WZ73)) | 0
YQNEVDDDLVCHICLQPLLQPLDTPCGHTFCYKCLRNFLQEKDFCPLDRKRLHFKLCKK (LNX2 RING domain (UniProt Q8N448)) | 0
B3 (DZIP3 RING domain) | 0
B4 (SH3RF1 RING domain) | 0
GSRLQEINDVCAICYHEFTTSARITPCNHYFHALCLRKWLYIQDTCPMCHQKVYIEDDIK (RNF139 RING domain (UniProt Q8WU17)) | 6710
B5 (ZMIZ2 RING domain) | 0
B6 (SYTL4 RING domain) | 0
GSDDEEIPFKCFICRQSFQNPVVTKCRHYFCESCALQHFRTTPRCYVCDQQTNGVFNPA (RNF113A RING domain (UniProt O15541)) | 0
B7 (MAP3K1 RING domain) | 0

Series 3 — target: CCNB2, cyclin fold, Cln2 fusion (human); method: yeast growth competition, sequencing; medium: yeast; setting: weak parent motif; reference: not given; direction: higher = stronger binding
Starting sequence: RB1 docking peptide (human); PKPLKKLRFDIEG; partner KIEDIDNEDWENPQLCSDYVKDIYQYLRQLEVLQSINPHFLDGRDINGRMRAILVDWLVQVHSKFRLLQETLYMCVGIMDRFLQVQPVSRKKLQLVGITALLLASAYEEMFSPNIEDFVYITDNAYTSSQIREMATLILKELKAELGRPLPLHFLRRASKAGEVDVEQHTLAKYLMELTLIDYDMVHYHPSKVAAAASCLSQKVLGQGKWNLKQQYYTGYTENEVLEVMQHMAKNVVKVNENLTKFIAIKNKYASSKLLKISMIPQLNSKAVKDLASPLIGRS
Change | normalised enrichment score
PKPLKFLRFDIEG [K6F] | 0.385
PKPLKALRFDIEG [K6A] | 0.711
PKPLKKLRFDIED [G13D] | 0.3
PKPLKKLRFDIEF [G13F] | 0.481
RKPLKKLRFDIEG [P1R] | 0.28
PKTLKKLRFDIEG [P3T] | 0.355
PKPLKKLRFDIDG [E12D] | 0.188
PKPAKKLRFDIEG [L4A] | 0.594
PKPLKKLRFDKEG [I11K] | 0.247
PKPLFKLRFDIEG [K5F] | -0.37
PKPIKKLRFDIEG [L4I] | 1
PKPLKKLAFDIEG [R8A] | -0.128
PKPPKKLRFDIEG [L4P] | 0.0601
PKPLKDLRFDIEG [K6D] | 0.322
PKPLKKLRFDAEG [I11A] | 0.642
EKPLKKLRFDIEG [P1E] | 0.332
PKPKKKLRFDIEG [L4K] | 0.0415

Series 4 — target: DDIT3, bZIP domain (human); method: DHFR protein complementation; medium: yeast; reference: wild-type JUN-FOS pair; direction: higher = stronger binding
Setting: single substitutions, most at no-binding floor
Starting sequence: JUN, bZIP domain (human); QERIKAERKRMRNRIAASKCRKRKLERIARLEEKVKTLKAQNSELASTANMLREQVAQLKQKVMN; partner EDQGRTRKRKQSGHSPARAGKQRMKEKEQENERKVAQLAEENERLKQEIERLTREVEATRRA
Change | binding fitness
E32I | -0.279 natural log
A49M | -0.142 natural log
K34M | 0.0418 natural log
E32L | -0.423 natural log
K36T | -0.102 natural log
R53M | -0.356 natural log
R53W | -1.12 natural log
V56F | -0.181 natural log
E54N | -0.0701 natural log
E44K | -0.0824 natural log
A46W | -0.0595 natural log
L59A | 0.0609 natural log
A49T | -0.594 natural log
E33C | -0.205 natural log

Series 5 — method: protein-binding microarray; form: double-stranded DNA, one strand shown; medium: in vitro; tested at: 2200 nM top; setting: 60-bp whole probe; together with: salmon DNA 0.4 mg/ml; reference: random background probes; direction: higher = stronger binding; constant ends, left off below: GCCTAGCAC … GTCTTGATTCGCTTGACGCTGCTG
Target: Interferon regulatory factor 7, full length, phosphomimetic (IRF7, Homo sapiens, UniProt Q92985, residues 1-503, S471D/S472D/S475D/S476D/S477D/S483D/S484D/S487D)
Chain of UniProt Q92985 (whole entry, unmodified, looked up): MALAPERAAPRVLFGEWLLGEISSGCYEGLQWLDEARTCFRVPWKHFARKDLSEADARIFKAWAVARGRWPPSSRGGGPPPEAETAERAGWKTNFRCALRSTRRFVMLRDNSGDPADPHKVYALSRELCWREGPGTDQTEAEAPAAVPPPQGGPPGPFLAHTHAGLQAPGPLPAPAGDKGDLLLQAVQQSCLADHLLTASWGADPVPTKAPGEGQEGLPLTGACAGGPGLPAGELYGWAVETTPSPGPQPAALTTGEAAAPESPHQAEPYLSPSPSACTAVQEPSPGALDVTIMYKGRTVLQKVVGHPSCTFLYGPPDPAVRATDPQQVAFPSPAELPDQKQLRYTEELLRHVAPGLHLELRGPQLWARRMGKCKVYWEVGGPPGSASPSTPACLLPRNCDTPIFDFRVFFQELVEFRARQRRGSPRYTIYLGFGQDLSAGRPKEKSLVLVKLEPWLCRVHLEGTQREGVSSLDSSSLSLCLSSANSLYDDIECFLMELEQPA
Strand | fitted relative affinity
TCATTTTCCATTTTGTGACTGTGCTAG | 7.48 z-score
TTAGAACTGGGGTTTCGATGAGTGCTA | 0.333 z-score
TCAGGTATCGGGACTGGGTTAGTGCTA | 0.0297 z-score
GACGGAATGGGGACTGGGGACGTGCTA | -0.343 z-score
TTAGGTCTCCTACTGGTTTAGTGCTAG | 0.547 z-score
GAAAGGTACCATGGTGGCTCGTGCTAG | 0.288 z-score
TTAGATTTCGGGTTTCGATTCGTGCTA | 9.9 z-score
TTAGGACTGGGTCTCGGATAGTGCTAG | -0.404 z-score
GAAGATTCCAGTTTCGAGACGTGCTAG | 4.65 z-score
TTTGGTCTCGGTTTCGGTTAGTGCTAG | 7.32 z-score
TCATATTAAAATTTAATACTGTGCTAG | -0.242 z-score
TTAGATTTTGGGTATCGATTAGTGCTA | 0.481 z-score
TTTTTTTTTTCCCTGAAAAAGTGCTAG | 2.16 z-score
GACGGTCTCGGTTTCGGGACGTGCTAG | 3.85 z-score
TTAGGACTGGACACTCGGTTAGTGCTA | -0.055 z-score
GGGAGTGTCAATAATGACCACGTGCTA | -0.544 z-score
GACGGTCTCGTACTGGGGACGTGCTAG | -0.247 z-score
GACGAACTGAGTTTCGAGAGGTGCTAG | 1.14 z-score
GACGGACAGGGGTTTCGGGACGTGCTA | 0.574 z-score
TTAGGTTTCGGTACTGGGTTAGTGCTA | 5.05 z-score
TTATGTATCCTACTGCTTTAGTGCTAG | 1.44 z-score
GACGGTTTCCTACTGCTGCCGTGCTAG | 1.89 z-score
GACGGTATCGACTGTCGGGACGTGCTA | -0.516 z-score
GACGATATCAGACTGAAGACGTGCTAG | -0.145 z-score

Repeated from above (series 5):
Strand | fitted relative affinity
TTAGGACTGGGTCTCGGATAGTGCTAG | -0.404 z-score
GAAGATTCCAGTTTCGAGACGTGCTAG | 4.65 z-score
TTTGGTCTCGGTTTCGGTTAGTGCTAG | 7.32 z-score
TCATATTAAAATTTAATACTGTGCTAG | -0.242 z-score
TTAGATTTTGGGTATCGATTAGTGCTA | 0.481 z-score
TTTTTTTTTTCCCTGAAAAAGTGCTAG | 2.16 z-score
GACGGTCTCGGTTTCGGGACGTGCTAG | 3.85 z-score
TTAGGACTGGACACTCGGTTAGTGCTA | -0.055 z-score
GGGAGTGTCAATAATGACCACGTGCTA | -0.544 z-score
GACGGTCTCGTACTGGGGACGTGCTAG | -0.247 z-score
GACGAACTGAGTTTCGAGAGGTGCTAG | 1.14 z-score
GACGGACAGGGGTTTCGGGACGTGCTA | 0.574 z-score
TTAGGTTTCGGTACTGGGTTAGTGCTA | 5.05 z-score
TTATGTATCCTACTGCTTTAGTGCTAG | 1.44 z-score
